Published values pooled from the literature.
Every numbered part comes from another study and shows a few of its results, in no order.

Series 1
Target: Fragile X messenger ribonucleoprotein 1, C-terminal low-complexity region (Fmr1, Mus musculus, UniProt P35922)
Method: RNA Bind-n-Seq
Form: RNA
Medium: in vitro
Concentration: 200 nM
Notes: whole 134-nt RNA, ends assumed
Added: 150 mM LiCl
Baseline: input library
Direction: higher = stronger binding
Quantity: log2 enrichment
All molecules: 7-deaza-guanosine replaces G
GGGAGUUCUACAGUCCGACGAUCUAACUUUAGAGGAGGAUCUGAUGGAUAUGGAAGUGGACGUGGAUUUGGGGAUGGCUAUAAUGGGUAUGGAGGAGGACCUGGAGGUGGCAAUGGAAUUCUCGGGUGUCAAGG: 0.571
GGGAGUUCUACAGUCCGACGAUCGCAGGAAGUAAAAACAAAUGGAAAUGCUUCGGAUAGUGGCAGGGGUGGGGGUUGCUAAGGAAAGGGUGCGAUGGGAGUGGGUAAAGAGUUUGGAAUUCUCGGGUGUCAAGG: 0.754
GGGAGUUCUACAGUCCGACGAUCCACAGUCAACACGCACCCACACAGACACAGAGGGAAGGGGUUGGGAUGGGGACAGGGUGCACAGCAGGGCGGGGUAGGACCCCAGCCCCUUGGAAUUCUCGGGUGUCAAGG: 0.779
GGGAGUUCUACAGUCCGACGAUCUGCAGAAGCAUCUUCAGUUGGAGAGCCAUUGCCUCUUGCUGUGAAAUAUUUGGGAAUCUUCAGAAACCAUGAAGAAUAACCUGCUAAAGGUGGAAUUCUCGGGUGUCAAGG: -0.309
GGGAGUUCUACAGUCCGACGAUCUGGCCCUGGUGGCAUGCGGGGAGGAAGAGGUGGCCUCAUGGAUCGUGGUGGUCCCGGUGGAAUGUUCAGAGGUGGCCGUGGUGGAGAUAGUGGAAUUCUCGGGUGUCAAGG: -0.111
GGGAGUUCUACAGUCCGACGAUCUCAAGUCCUGUGCUACACAUCGUAUGUACCGAAUCGGCCCGGCCCGGGCCCGGGGAAAGUAUUAUGUUACGCCGUUCGGAUCUGCACUUCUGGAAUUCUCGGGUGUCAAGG: -1.51
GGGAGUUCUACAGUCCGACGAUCUCAAGUCCUGUGCUACACAUCGUAUGUACCGAAUCGGCCCGGGCCCGGCCCGGGAAAGUAUUAUGUUACGCCGUUCGGAUCUGCACUUCCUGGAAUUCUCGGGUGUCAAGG: -1.29
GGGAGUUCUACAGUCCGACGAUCCUCAAGUCCUGUGCUACACAUCGUAUGUACCGAAUCGGAGGUGGUUUUUUUGGAAAGUAUUAUGUUACGCCGUUCGGAUCUGCACUUCCAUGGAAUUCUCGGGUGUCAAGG: -0.992
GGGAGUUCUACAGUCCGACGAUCUGGCCCUGGUGGCAUGCGGGGAGGAAGAGGUGGCCUCAUGGAUAGUGGUGGUCCCGGUGGAAUGUUCAGAGGUGGCCGUGGUGGAGACAGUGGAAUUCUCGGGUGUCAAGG: 0.0213
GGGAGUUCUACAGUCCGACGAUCUGGGAGGUGGAUUUUGUUAAUUUUUUUAGCUCAUUUCCAGGGGUGGGAAUUUUUUUUUAAUAUGUGUCAUGAAUAAAGUUGUUUUUGAAAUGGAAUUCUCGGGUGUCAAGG: -0.65
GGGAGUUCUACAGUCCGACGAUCCAAGUCCUGUGCUACACAUCGUAUGUACCGAAUCGGAAAAAGGUGGAAAAAAAGGAAAGUAUUAUGUUACGCCGUUCGGAUCUGCACUUCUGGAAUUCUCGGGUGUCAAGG: -0.952

Series 2
Target: Sal-like protein 4, full length isoform B (SALL4, Homo sapiens, UniProt Q9UJQ4-2, residues 1-616)
Method: universal PBM
Form: double-stranded DNA, one strand shown
Medium: in vitro
Concentration: not given
Notes: 8-mer, flanks averaged, mean of replicates
Direction: higher = stronger binding
Quantity: E-score
ATTAGAAG: 0.141
TAACAATA: 0.422
TCGGCCGA: -0.0936
AACAGCGA: -0.152
ATGTACAA: 0.275
GGTCTAAC: -0.157
CATGATCG: 0.114
GAACGAAA: 0.0189
CGAGCCCA: -0.224
GCATGCCC: -0.0984
ACACACCT: 0.104
CGAGCATA: 0.0683
ATTGGCGC: -0.0162
ACTGCATA: 0.181
CGAGTGAG: -0.177
CGGCGCAC: -0.316
ACGCGTCT: -0.109
AACCTGGT: -0.121
GACGAGGA: -0.0957
CGACTGTA: -0.149
GCACATCA: -0.00047
AATGAGCC: -0.117
ATTGAAAT: 0.332
GGGCGCGA: -0.306
AGTACAAA: 0.185

Series 3
Target: RNA binding protein fox-1 homolog 2, RRM domain, GST-SBP tag (RBFOX2, Homo sapiens, UniProt O43251-10, residues 100-194)
Method: RNA Bind-n-Seq
Form: RNA
Medium: in vitro
Concentration: 365 nM
Notes: natural RNA segment, single round, ends assumed
Baseline: no-protein control
Direction: higher = stronger binding
Quantity: RBNS enrichment (R)
Construct (chain): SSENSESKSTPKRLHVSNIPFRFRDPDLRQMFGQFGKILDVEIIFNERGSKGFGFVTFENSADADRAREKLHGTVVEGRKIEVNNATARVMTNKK
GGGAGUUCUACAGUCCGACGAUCAAGAGGCUUUUUGUUUUGUUUUUGUUUUUGUUUUUAGAAGCAGUUCGUAGUAUUUGAAAGAAUAAAUCAAGUUUUGAUUAUGCUAUAGGUUGAUUUUUGUGUUGAUCCAAUGGAAUUCUCGGGUGCCAA: 2.35
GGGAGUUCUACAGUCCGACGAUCCCUCCUUUUAUUCCUGUUUCCCGAAAUAAGGUAUUUGUAGAGUUAAGGACCUACUGCAUGCCUGUCCCCAGGGCCCCGGUGGAAGGAAGGCAGCGCCUGCUCUUCCUUAAUGGAAUUCUCGGGUGCCAA: 3.29
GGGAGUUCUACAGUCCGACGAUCCAGCAGCUGCAGACAUGUUUGGGAAUAUGAGAGCAUGUUCGCAGACCCACCAGGUUCUGUGUCCUAUGGGCUACACCUGGCUCCAGCAAGAAUGCCUGCCAUGGGCACUUUGGAAUUCUCGGGUGCCAA: 1.44
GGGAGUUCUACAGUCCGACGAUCCUUUGCUUCUUUUAUGUUUGUAAUCUGUAAAUGAACACAUGGCAGAAAAUAACCCCUGAUUGGUAGGAUCAUAGUUCUAAAUGGAAAUGUUUGUAAUUCUUUGAUGUGCUUGGAAUUCUCGGGUGCCAA: 1.33
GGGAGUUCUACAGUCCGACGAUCCUUAGUUGAUUCAGUAGUUGUUACCAAGAAACAUAUGUUAUAGGAAAACAACUUGGUAUUUAAGUAUGAAGUGGAUGAAAUGUUUAUUUAUUUAAGGUGAAAGCAUUUGAUGGAAUUCUCGGGUGCCAA: 0.398
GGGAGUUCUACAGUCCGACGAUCUUAAGUUGACCAUUCUUUUUGUUUUUCUAAGACACAGAAAUGUAUUUAAUAAAACCUUCAAGAGAGAGUAAUGGACGGAGUGCAUUCUCCUUGAAAACUGUUCAGAGUUUUGGAAUUCUCGGGUGCCAA: 0.327
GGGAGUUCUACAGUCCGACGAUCAGGACACUGUCAGUAGGGAACGGAAUGAAAACUCAAAUGUUGCCUGCAGUUGAGCAAGGAAGCUGAGGUUGGAACCAUUAAACUAUUUCUUCCCAUUUUCAAAAGGACCUUGGAAUUCUCGGGUGCCAA: 0.49
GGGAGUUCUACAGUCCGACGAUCGGCAACCCCAGCCCACUGGACAGAGUCCUCAUGGAAAUGCCUGGGAAGCUGAUUUCAUCUAAGGAUGGGUUGAAGUAGGAUGUGCUCCUGCGACUUCUCAGGCAGGUGAGUGGAAUUCUCGGGUGCCAA: 0.258
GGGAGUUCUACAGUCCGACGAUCAAUGGAGUACUCAUCUUCUCAUAGAAGAGCCGAUUAAUAUUAUCUAAGUACUUUAGUAGAAAACAACCUGUCAAUUUCUGAGGAAAAUAACAUUUUAGAAGCAAAGAACAUGGAAUUCUCGGGUGCCAA: 0.398
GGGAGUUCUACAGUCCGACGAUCUGUGUUGAUGUUAAAGUCAAAGGCUGCAGUAUGUCUAUAUUCUUGCUGUACUCAUUGGUAGUUUCAGUAUAUGUAAUGUGAGUUUAAAUAGUGAAAUUGUAUCUCAUAUUUGGAAUUCUCGGGUGCCAA: 0.69
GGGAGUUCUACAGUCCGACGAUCCGUUAACUGCUGCAGCUCUCUUUGGGCCACCCUAGUGUUUGUGAUUCAUGCUUGAAGUAACCUUGCCGACAGUUGUGUGGCACAGACUCCCAGUACCAGCAAGGGGGCCGUGGAAUUCUCGGGUGCCAA: 0.417
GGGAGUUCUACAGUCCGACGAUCCAUUGUAAGAUUGUGAAGAUAUAUAAAAUUGAUGAAUUAAGAGAAAUUAUGCCACUUUCCUAUAGUUUCUGUGUUCUGUUUAUUGUAUGGUGUAUUCACUCUUGGAAAAUUGGAAUUCUCGGGUGCCAA: 0.488

Series 4
Target: Hepatocyte nuclear factor 3-beta, forkhead domain (FOXA2, Homo sapiens, UniProt Q9Y261, residues 142-269)
Method: protein-binding microarray
Form: double-stranded DNA, one strand shown
Medium: in vitro
Concentration: not given
Notes: k-mer, scored over probes, only values ≥0.25
Direction: higher = stronger binding
Quantity: E-score
Residues (chain): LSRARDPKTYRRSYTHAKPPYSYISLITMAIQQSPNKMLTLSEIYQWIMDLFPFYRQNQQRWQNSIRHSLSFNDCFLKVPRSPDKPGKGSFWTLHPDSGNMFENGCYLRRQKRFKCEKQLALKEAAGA
ATCACATA: 0.362
GTTGTATA: 0.296
ATAACATC: 0.326
GGCAAATA: 0.314
TAACTAGA: 0.31
CTATTTGC: 0.256
CTGTGTAA: 0.261
TAGTGACA: 0.297
GTATGTCA: 0.309
AAGAGTAA: 0.261
CTATCTAC: 0.256
CATATAAG: 0.28
TGTCTAAA: 0.279
GGGATACA: 0.253
ACATATGG: 0.335
ATACACCA: 0.289
ATACAGTA: 0.347
CTAAACAC: 0.251

Series 5
Organism: Saccharomyces cerevisiae
Read-out: binding
Method: yeast competitive growth sequencing
Form: peptide
Strain: cyclin D2-Cln2 fusion strain
Notes: peptide tiling library
Direction: direction not given
Quantity: enrichment score
NCKKRRALDFLSRLPL: -1.57
IPDRSTKPVVFSPT: 2.29
VKTKKRLNFDDK: -0.452
RRRRLLFWDKETQI: -2.29
LFVPQRKLEVSTEDVH: -0.843

Series 6
Target: Prothrombin, mature alpha-thrombin (F2, Homo sapiens, UniProt P00734)
Method: aptamer microarray, sandwich
Form: DNA with 2'F-ANA
Medium: in vitro
Concentration: 200 nM
Notes: whole 15-mer aptamer, many near background
Added: Cy3 exosite-II aptamer, 400 nM
Direction: higher = stronger binding
Quantity: mean fluorescence intensity
Oligonucleotide: GGTTGGTGTGGTTGG
2'F-ANA at 2 4 5 7 9 10 13 14: 44.5 a.u.
2'F-ANA at 2 3 7 9 10 11 12 13 14: 263 a.u.
2'F-ANA at 1 3 6 7 9 10 13 14: 102 a.u.
2'F-ANA at 2 3 6 11 13 15: 545 a.u.
2'F-ANA at 1 7 10 11 14 15: 45.7 a.u.
2'F-ANA at 2 3 5 6 7 9 11 12 14 15: 53 a.u.
2'F-ANA at 1 2 3 4 8 9 11 12 14 15: 75 a.u.
2'F-ANA at 8 9 10: 219 a.u.
2'F-ANA at 2 3 5 6 14 15: 82.2 a.u.
2'F-ANA at 4 7 12 15: 620 a.u.
2'F-ANA at 7 8 10 11 12 13 14 15: 103 a.u.
2'F-ANA at 1 2 4 7 8 9 11 12 13 14 15: 57.8 a.u.
2'F-ANA at 1 3 4 6 8 12 13: 324 a.u.
2'F-ANA at 4 5 6 8 11 15: 72.3 a.u.
2'F-ANA at 2 4 5 6 8 9 11 15: 58.1 a.u.
2'F-ANA at 1 2 3 4 6 8 10 11 14: 52.6 a.u.
2'F-ANA at 2 3 5 12 14: 58.8 a.u.
2'F-ANA at 1 3 4 5 6 10 14: 49.1 a.u.
2'F-ANA at 1 2 6 7 11 14: 61.1 a.u.
2'F-ANA at 1 2 5 9 14 15: 50.1 a.u.
2'F-ANA at 1 4 8 10 13 15: 49.8 a.u.
2'F-ANA at 4 7 8 10 11 12 14: 72.7 a.u.
2'F-ANA at 1 2 5 6 7 8 9 10 11 13 14 15: 52.9 a.u.
2'F-ANA at 10 13 14: 150 a.u.
2'F-ANA at 1 2 5 7 9 10 15: 45.8 a.u.

Repeated from above (series 4):
GGCAAATA: 0.314
TAGTGACA: 0.297
CTAAACAC: 0.251
ATACAGTA: 0.347
GGGATACA: 0.253
GTATGTCA: 0.309
CATATAAG: 0.28
ATACACCA: 0.289
